# Experimental data of several laboratories.
# Each line is one published result; not all experiments were run side by side. Numbers after ± are the reported error. Ends that are not written are not given here. No end group written: not given here. The star is where a group is joined. * marks the point of attachment.
# CIB1: CIB1 (Homo sapiens, UniProt Q99828)
# Gnao1: Gnao1, AlexaFluor 532 label (Rattus norvegicus, UniProt P59215)
# B1: Sas-4 606-901 (Drosophila melanogaster, UniProt Q9VI72); sequence looked up; chain RNIARLAPKVLPSATMSDILDENGRRTQSLDGTAGKPAKQREAQNRRQSSGSAQVRSRSRSLSRNKKTPYALDESYASSSSVESEEVQPPVTAPKAATPPPAANSSSDFKREITNADGSKDIWYPNGNLKKISADGMNLRMLYFNKDIKETNIREGTVKYYYAETNTWHTSYLDGLEILEFPNGQTEHRRKDGTVEIHFPNNSIKIVDPSDTEKLEEWRYADGTHLVQLRNGDKILNLPNGQKEIHTKLNKRREYPDGTVKLVYPDGSQETRYSNGRVRLKDKDGKLIMDTDYAKY
# B2: RGS4 residues 52-end 52-205 del1-51 (UniProt P49799); sequence looked up; chain SQEEVKKWAESLENLINHECGLAAFKAFLKSEYSEENIDFWISCEEYKKIKSPSKLSPKAKKIYNEFISVQATKEVNLDSCTREETSRNMLEPTITCFDEAQKKIFNLMEKDSYRRFLKSRFYLDLTNPSSCGAEKQKGAKSSADCTSLVPQCA
# B3: FDX1 61-184 (Homo sapiens, UniProt P10109); sequence looked up; chain SSSEDKITVHFINRDGETLTTKGKVGDSLLDVVVENNLDIDGFGACEGTLACSTCHLIFEDHIYEKLDAITDEENDMLDLAYGLTDRSRLGCQICLTKSMDNMTVRVPETVADARQSIDVGKTS
# B4: GRIK5 amino terminal domain 20-406 (Rattus norvegicus, UniProt Q63273); N-linked glycans; chain VLSSLRMAAILDDQTVCGRGERLALALAREQINGIIEVPAKARVEVDIFELQRDSQYETTDTMCQILPKGVVSVLGPSSSPASASTVSHICGEKEIPHIKVGPEETPRLQYLRFASVSLYPSNEDVSLAVSRILKSFNYPSASLICAKAECLLRLEELVRGFLISKETLSVRMLDDSRDPTPLLKEIRDDKVSTIIIDANASISHLVLRKASELGMTSAFYKYILTTMDFPILHLDGIVEDSSNILGFSMFNTSHPFYPEFVRSLNMSWRENCEASTYPGPALSAALMFDAVHVVVSAVRELNRSQEIGVKPLACTSANIWPHGTSLMNYLRMVEYDGLTGRVEFNSKGQRTNYTLRILEKSRQGHREIGVWYSNRTLAMNATTLDI
# B5: RGS7 RH domain 333-448 (UniProt P49802); sequence looked up; chain GMDEALKDPVGREQFLKFLESEFSSENLRFWLAVEDLKKRPIKEVPSRVQEIWQEFLAPGAPSAINLDSKSYDKTTQNVKEPGRYTFEDAQEHIYKLMKSDSYPRFIRSSAYQELL
# B6: MIF4GD R76A (Homo sapiens, UniProt A9UHW6); sequence looked up; chain MGEPSREEYKIQSFDAETQQLLKTALKDPGAVDLEKVANVIVDHSLQDCVFSKEAGRMCYAIIQAESKQAGQSVFARGLLNRLQQEYQAREQLRARSLQGWVCYVTFICNIFDYLRVNNMPMMALVNPVYDCLFRLAQPDSLSKEEEVDCLVLQLHRVGEQLEKMNGQRMDELFVLIRDGFLLPTGLSSLAQLLLLEIIEFRAAGWKTTPAAHKYYYSEVSD
# B7: RGS6 RGS homology domain 336-441 (Homo sapiens, UniProt P49758); sequence looked up; chain SFDEILKDQVGRDQFLRFLESEFSSENLRFWLAVQDLKKQPLQDVAKRVEEIWQEFLAPGAPSAINLDSHSYEITSQNVKDGGRYTFEDAQEHIYKLMKSDSYARF
# B8: TIMP1 mature (Homo sapiens, UniProt P01033); sequence looked up; chain CTCVPPHPQTAFCNSDLVIRAKFVGTPEVNQTTLYQRYEIKMTKMYKGFQALGDAADIRFVYTPAMESVCGYFHRSHNRSEEFLIAGKLQDGLLHITTCSFVAPWNSLSLAQRRGFTKTYTVGCEECTVFPCLSIPCKLQSGTHCLWTDQLLQGSEKGFQSRHLACLPREPGLCTWQSLRSQIA
# B9: ftsZ (Bacillus subtilis, UniProt P17865); sequence looked up; chain MLEFETNIDGLASIKVIGVGGGGNNAVNRMIENEVQGVEYIAVNTDAQALNLSKAEVKMQIGAKLTRGLGAGANPEVGKKAAEESKEQIEEALKGADMVFVTAGMGGGTGTGAAPVIAQIAKDLGALTVGVVTRPFTFEGRKRQLQAAGGISAMKEAVDTLIVIPNDRILEIVDKNTPMLEAFREADNVLRQGVQGISDLIATPGLINLDFADVKTIMSNKGSALMGIGIATGENRAAEAAKKAISSPLLEAAIDGAQGVLMNITGGTNLSLYEVQEAADIVASASDQDVNMIFGSVINENLKDEIVVTVIATGFIEQEKDVTKPQRPSLNQSIKTHNQSVPKREPKREEPQQQNTVSRHTSQPADDTLDIPTFLRNRNKRG
# B10: dinB (Escherichia coli, UniProt Q47155); sequence looked up; chain MRKIIHVDMDCFFAAVEMRDNPALRDIPIAIGGSRERRGVISTANYPARKFGVRSAMPTGMALKLCPHLTLLPGRFDAYKEASNHIREIFSRYTSRIEPLSLDEAYLDVTDSVHCHGSATLIAQEIRQTIFNELQLTASAGVAPVKFLAKIASDMNKPNGQFVITPAEVPAFLQTLPLAKIPGVGKVSAAKLEAMGLRTCGDVQKCDLVMLLKRFGKFGRILWERSQGIDERDVNSERLRKSVGVERTMAEDIHHWSECEAIIERLYPELERRLAKVKPDLLIARQGVKLKFDDFQQTTQEHVWPRLNKADLIATARKTWDERRGGRGVRLVGLHVTLLDPQMERQLVLGL
# B11: CSF1 33-496 (Homo sapiens, UniProt P09603); sequence looked up; chain EEVSEYCSHMIGSGHLQSLQRLIDSQMETSCQITFEFVDQEQLKDPVCYLKKAFLLVQDIMEDTMRFRDNTPNAIAIVQLQELSLRLKSCFTKDYEEHDKACVRTFYETPLQLLEKVKNVFNETKNLLDKDWNIFSKNCNNSFAECSSQDVVTKPDCNCLYPKAIPSSDPASVSPHQPLAPSMAPVAGLTWEDSEGTEGSSLLPGEQPLHTVDPGSAKQRPPRSTCQSFEPPETPVVKDSTIGGSPQPRPSVGAFNPGMEDILDSAMGTNWVPEEASGEASEIPVPQGTELSPSRPGGGSMQTEPARPSNFLSASSPLPASAKGQQPADVTGTALPRVGPVRPTGQDWNHTPQKTDHPSALLRDPPEPGSPRISSLRPQGLSNPSTLSAQPQLSRSHSSGSVLPLGELEGRRSTRDRRSPAEPEGGPASEGAARPLPRFNSVPLTDTGHERQSEGSFSPQLQES
Molecule,target or system,test,test system,conditions,measurement,value
"SKTRGNAKVTGRWK (TNNT2 275-288 K280N (Homo sapiens, UniProt P45379-6); sequence looked up)","TPM1 (Oryctolagus cuniculus, UniProt P58772)",SPR,peptide,"pH 7.0, KCl 0.1 M",Kd,5.29 µM
B1 (Sas-4 606-901),"ana2 S38A, Plk4 phosphorylated (Drosophila melanogaster, UniProt Q9XZ31)",BLI,,"approximate, prephosphorylated, single experiment",Kd,0.028 µM
"CDKN1A/POLB p21 peptide with POLB PIP-box, C-terminal amide (Homo sapiens)","PCNA (Homo sapiens, UniProt P12004)",SPR,,,Kd,5.73 µM
"PDPK1 (Homo sapiens, UniProt O15530)",TP53 (UniProt P04637),MST,,,Kd,0.006 µM
EDGGSFWYGAAKALYG (designed peptide),CIB1,ITC,peptide,"25 °C, with: CaCl2 0.1 mM",Kd,1.12 µM
"F5 activated FVa (Homo sapiens, UniProt P12259)",beta2-glycoprotein I/3B7 antibody (Homo sapiens/Mus musculus),ELISA,,,Kd,0.046 µM
B2,Gnao1,flow cytometry,,with: GDP-AlF4-,Kd,0.115 µM
B3 (FDX1 61-184),"LIAS 28-372 (Homo sapiens, UniProt O43766)",MST,,with: FDX1 375-0.009 µM,Kd,6 ± 2 µM
B4,"Grik2 amino terminal domain 32-420 G215N/M217T, N-linked glycans (Rattus norvegicus, UniProt P42260)",AUC,,"pH 7.5, 20 °C, NaCl 200 mM, sedimentation velocity, monomer-dimer model",Kd,0.011 µM
B5 (RGS7 RH domain 333-448),Gnao1,flow cytometry,,with: GDP-AlF4-,Kd,0.063 µM
5FAM-ARRGKKKSGCLVL (RHOA residues 181-193 (Homo sapiens); N-terminal 5-FAM; 5FAM = O=C1OC2(c3ccc(O)cc3Oc3cc(O)ccc32)c2ccc(C(=O)*)cc21),"RAP1GDS1 (Homo sapiens, UniProt P52306-2)",fluorescence polarization,peptide,,Kd,8.1 ± 1.5 µM
B6 (MIF4GD R76A),"SLBP, phosphorylated, multiple sites (Homo sapiens, UniProt Q14493)",SPR,,"pH 7.4, 25 °C, NaCl 150 mM",Kd,3.02 ± 2.2 µM
"FGF14 fragment, N-terminal adamantanecarbonyl, Glu tert-butyl ester, C-terminal ethyl ester (Homo sapiens)","FGF14 64-252 (Homo sapiens, UniProt Q92915-2)",SPR,,,Kd,9.47 ± 1.22 µM
ARTKQTARKSTG-fluorescein (histone H3 2-13 (UniProt P68431); C-terminal fluorescein; sequence looked up),BIRC2 fragment (Homo sapiens),MST,peptide,"pH 7.5, NaCl 150 mM",Kd,1 µM
AAEDWCKKGDT,,,"peptide, human polyclonal IgM RF ABR","concentration not given, 5 µg/mL mAb II-481 coated, with: RF at 50% max binding concentration",inhibition,0%
B7,Gnao1,flow cytometry,,"pH 8.0, with: GDP-AlF4-",Kd,0.34 µM
B8 (TIMP1 mature),"MMP9 proenzyme, full length E402A (Homo sapiens, UniProt P14780)",SPR,,pH 7.4,Kd,0.01 µM
B9 (ftsZ),"UgtP F112A/V117A/E306A/N309A (Bacillus subtilis, UniProt P54166)",BLI,,"pH 8.0, 30 °C, NaCl 100 mM, with UDP-glc, with: UDP-glc",Kd,0.02 µM
B10 (dinB),"dnaN 1-366 (Escherichia coli, UniProt P0A988)",SPR,,"pH 7.4, NaCl 150 mM",Kd,0.465 µM
EDGGSFWYGAMKGLYG (designed peptide),CIB1,ITC,peptide,"25 °C, with: CaCl2 0.1 mM",Kd,0.112 µM
LHNHYT,,,"peptide, human polyclonal IgM RF ABR","concentration not given, 5 µg/mL mAb II-481 coated, with: RF at 50% max binding concentration",inhibition,0%
B11 (CSF1 33-496),"CSF1R Fc fusion D1-D5 20-512 (Homo sapiens, UniProt P07333)",SPR,,"pH 7.4, NaCl 0.15 M",Kd,0.0038 µM
Ac-SAAASSSWHTLFTAEEGQLYG-NH2 (AR 426-446 (Homo sapiens); N-acetyl; C-amide),"GTF2F1 450-517 (Homo sapiens, UniProt P35269)",NMR titration,peptide,"pH 7.4, 298 K",Kd,1750 ± 60 µM
"DGGTAENLSRRLKVTGDLFDIMSGQT (BECN1 105-130 M109A (Homo sapiens, UniProt Q14457); sequence looked up)","BCL2 1-218 (Homo sapiens, UniProt P10415)",ITC,peptide,"pH 7.5, 25 °C, NaCl 150 mM, independent binding model",Kd,14.5 ± 2.3 µM
"{TAMRA}-QINQVRPKLPLLKILHAAGAQ-NH2 (MDM4 residues 23-43 (Homo sapiens); SMILES CC[C@H](C)[C@H](NC(=O)[C@H](CCC(N)=O)NC(=O)c1ccc(-c2c3ccc(=[N+](C)C)cc-3oc3cc(N(C)C)ccc23)c(C(=O)[O-])c1)C(=O)N[C@@H](CC(N)=O)C(=O)N[C@@H](CCC(N)=O)C(=O)N[C@H](C(=O)N[C@@H](CCCNC(=N)N)C(=O)N1CCC[C@H]1C(=O)N[C@@H](CCCCN)C(=O)N[C@@H](CC(C)C)C(=O)N1CCC[C@H]1C(=O)N[C@@H](CC(C)C)C(=O)N[C@@H](CC(C)C)C(=O)N[C@@H](CCCCN)C(=O)N[C@H](C(=O)N[C@@H](CC(C)C)C(=O)N[C@@H](Cc1c[nH]cn1)C(=O)N[C@@H](C)C(=O)N[C@@H](C)C(=O)NCC(=O)N[C@@H](C)C(=O)N[C@@H](CCC(N)=O)C(N)=O)[C@@H](C)CC)C(C)C; N-terminal TAMRA; C-terminal amide; TAMRA = 5-carboxytetramethylrhodamine, CN(C)c1ccc2c(-c3ccc(C(=O)*)cc3C(=O)[O-])c3ccc(=[N+](C)C)cc-3oc2c1)","S100b (Rattus norvegicus, UniProt P04631)",fluorescence polarisation,peptide,"37 °C, with: CaCl2 10 mM",Kd,0.00308 ± 0.00039 µM
"UGT1A9 (Homo sapiens, UniProt O60656)",CN1CC[C@H](c2c(O)cc(O)c3c(=O)cc(-c4ccccc4Cl)oc23)[C@H](O)C1,steady-state kinetics,,"pH 7.4, 37 °C",Vmax/Km,5.8 µL/min/mg

# Some of these lines once more:
Molecule,target or system,test,test system,conditions,measurement,value
B7,Gnao1,flow cytometry,,"pH 8.0, with: GDP-AlF4-",Kd,0.34 µM
B9 (ftsZ),"UgtP F112A/V117A/E306A/N309A (Bacillus subtilis, UniProt P54166)",BLI,,"pH 8.0, 30 °C, NaCl 100 mM, with UDP-glc, with: UDP-glc",Kd,0.02 µM
B4,"Grik2 amino terminal domain 32-420 G215N/M217T, N-linked glycans (Rattus norvegicus, UniProt P42260)",AUC,,"pH 7.5, 20 °C, NaCl 200 mM, sedimentation velocity, monomer-dimer model",Kd,0.011 µM
B5 (RGS7 RH domain 333-448),Gnao1,flow cytometry,,with: GDP-AlF4-,Kd,0.063 µM
